Results pooled from the literature.
Each line is one published result; not all experiments were run side by side. “And” joins repeats or separate records; there may be more than shown. ± marks the error that the study gave.

`FC(F)(F)c1ccnc(-c2cc(C(F)(F)F)ccn2)c1.FC(F)(F)c1ccnc(-c2cc(C(F)(F)F)ccn2)c1.[Cl-].[Cl-].[Ru+2].c1csc(-c2ccc(-c3ccc(-c4ccc(-c5nc6c7cccnc7c7ncccc7c6[nH]5)s4)s3)s2)c1` has an EC50 of 0.009 µM (SK-MEL-28; cell viability, resazurin; visible light, normoxia, lowest replicate).
With `N=C(N)NCCC[C@H](N)C(=O)N1CCC[C@H]1C(=O)N[C@@H](CCCCN)C(=O)N1CCC[C@H]1C(=O)N[C@@H](CCC(N)=O)C(=O)N[C@@H](CCC(N)=O)C(=O)N[C@@H](Cc1ccccc1)C(=O)N[C@@H](Cc1ccccc1)C(=O)NCC(=O)O` the EC50 was 11.8 µM (LAD2 human mast cells; CCL2 release, activator, measured: CCL2; 24 h, 37 °C).
For `Cc1ccc(CC(=O)c2c(O)c(O)cc3c(O)c(-c4c(C)cc5c(C(=O)Cc6ccc(C)cc6)c(O)c(O)cc5c4O)c(C)cc23)cc1`, the EC50 was 0.82 µM (H460; ATP-lite viability; 72 h).
For `CC(C)C[C@H](NC(=O)[C@H](CO)NC(=O)[C@H](Cc1ccc(O)cc1)NC(=O)CNC(=O)[C@H](CCCNC(=N)N)NC(=O)[C@H](Cc1ccc(O)cc1)NC(=O)[C@@H](N)CC(N)=O)C(=O)NCC(=O)N[C@@H](CC(N)=O)C(N)=O`, the EC50 was > 10 µM (2D12.1 T cell hybridoma; T cell activation, agonist, measured: IL-2; 24 h, NOD mouse spleen cells).
`FC(F)(F)c1ccnc(-c2cc(C(F)(F)F)ccn2)c1.FC(F)(F)c1ccnc(-c2cc(C(F)(F)F)ccn2)c1.[Cl-].[Cl-].[Ru+2].c1csc(-c2ccc(-c3ccc(-c4nc5c6cccnc6c6ncccc6c5[nH]4)s3)s2)c1` has an EC50 of 1.1 µM and ~1 µM (SK-MEL-28; cell viability; hypoxia 1% O2, together with: green light 523 nm).
With `[Ru+2].c1ccc(-c2ccc3c(n2)c2ncccc2c2nc4cc5ccccc5cc4nc32)nc1.c1ccc(-c2ccc3c(n2)c2ncccc2c2nc4cc5ccccc5cc4nc32)nc1` the EC50 was 0.7 ± 0.2 µM (M2 murine macrophages; cell viability, MTT; 1 h, blue light 56 J/cm2).
`O=C(N[C@@H](Cc1coc2ccccc12)B(O)O)[C@@H]1C[C@H]2CC[C@@H]1O2` has an EC50 of 0.42 µM (MM1.S; caspase 3/7 activity; 72 h).
For `CC(=O)OC[C@H]1O[C@@H]([Se][Se][C@@H]2O[C@H](COC(C)=O)[C@@H](OC(C)=O)[C@H](OC(C)=O)[C@H]2OC(C)=O)[C@H](OC(C)=O)[C@@H](OC(C)=O)[C@@H]1OC(C)=O`, the EC50 was 4.9 ± 0.45 µM (J774 mouse macrophages; viability; 24 h).
With `CC(C)C[C@H](NC(=O)[C@H](CO)NC(=O)[C@H](Cc1ccc(O)cc1)NC(=O)CNC(=O)[C@H](CCCNC(=N)N)NC(=O)[C@H](Cc1ccc(O)cc1)NC(=O)[C@H](CC(N)=O)NC(=O)[C@H](CC(=O)O)NC(=O)[C@@H](N)CC(C)C)C(=O)NCC(=O)N[C@@H](CC(N)=O)C(N)=O` the EC50 was > 10 µM (2D12.1 T cell hybridoma; T cell activation, agonist, measured: IL-2; 24 h, NOD mouse spleen cells).
